{"data": "Measured values from different studies", "cell line": "RAW264.7", "note": "Lines come from different studies, so protocols differ. Values joined by “and” are separate records of one study, mostly repeats; a detail may differ. ± gives the spread as reported."}
{"Structure (SMILES)": "CCCCn1cc(C(=O)O)c(=O)c2cc(F)c(Nc3ccccc3Cl)c([N+](=O)[O-])c21", "effect on": "NO release", "action": "inhibitor", "technique": "Griess", "setting": "LPS-stimulated", "IC50": "72.3 µM"}
{"Structure (SMILES)": "O=C(/C=C/CBr)O[C@@H]1COC(=O)C1", "effect on": "NO release", "action": "inhibitor", "setting": "LPS-stimulated", "IC50": "1.5 µM"}
{"Structure (SMILES)": "COC1=C[C@@H]2[C@@H]3Cc4ccc(OC)c(OC(=O)[C@@H](N)CC(C)C)c4[C@]2(CCN3C)CC1=O", "effect on": "NO release", "action": "inhibitor", "technique": "Griess", "setting": "LPS-stimulated", "IC50": "69.2 µM"}
{"Structure (SMILES)": "CC(C)C1=C(OC(=O)Cc2ccccc2)C(=O)C2=C(C=C[C@H]3C(C)(C)CCC[C@]23C)C1=O", "effect on": "NO release", "action": "inhibitor", "time": "24 h", "setting": "LPS-stimulated", "IC50": "9.94 µM"}
{"Structure (SMILES)": "CCCCn1cc(C(=O)O)c(=O)c2cc(F)c(Nc3cccc(Cl)c3)c(N)c21", "effect on": "NO release", "action": "inhibitor", "technique": "Griess", "setting": "LPS-stimulated", "IC50": "5 µM and 5.39 µM"}
{"Structure (SMILES)": "COC1=C[C@@H]2[C@@H]3Cc4ccc(OC)c(OC(=O)c5ccnnc5)c4[C@]2(CCN3C)CC1=O", "effect on": "NO release", "action": "inhibitor", "technique": "Griess", "setting": "LPS-stimulated", "IC50": "77.8 µM"}
{"Structure (SMILES)": "CCCCn1cc(C(=O)O)c(=O)c2cc(F)c(Nc3ccccc3Cl)c(N)c21", "effect on": "nitric oxide production", "technique": "Griess", "time": "24 h", "with": "LPS", "IC50": "56.5 ± 3.56 µg/mL"}
{"Structure (SMILES)": "CNCC(=O)Oc1c(OC)ccc2c1[C@@]13CCN(C)[C@@H](C2)[C@H]1C=C(OC)C(=O)C3", "effect on": "NO release", "action": "inhibitor", "technique": "Griess", "setting": "LPS-stimulated", "IC50": "41.7 µM"}
{"Structure (SMILES)": "CC1=C(C)C(=O)O[C@@H]([C@](C)(O)[C@]2(O)CC[C@]3(O)[C@@H]4C[C@H]5O[C@]56[C@@H](O)[C@@H](O)CC(=O)[C@]6(C)[C@H]4CC[C@]23C)C1", "effect on": "NO release", "action": "inhibitor", "technique": "Griess", "setting": "LPS-stimulated", "IC50": "24.3 µM"}
{"Structure (SMILES)": "O=C(/C=C/CF)O[C@@H]1COC(=O)C1", "effect on": "NO release", "action": "inhibitor", "setting": "LPS-stimulated", "IC50": "4.3 µM"}
{"Structure (SMILES)": "COc1ccc(-n2cc(C(=O)N3C[C@]4(OC(=O)c5ccccc5NC(C)=O)CC[C@H](OC)[C@@]56[C@@H]4C[C@@H]([C@@H]35)[C@@]3(O)C[C@H](OC)[C@H]4C[C@@H]6[C@]3(O)[C@H]4OC)nn2)cc1", "effect on": "PGE2 release", "action": "inhibitor", "technique": "ELISA", "time": "24 h", "setting": "LPS-stimulated", "IC50": "> 100 µM"}
{"Structure (SMILES)": "CCCCn1cc(C(=O)O)c(=O)c2cc(F)c3c(nnn3-c3ccccc3Cl)c21", "effect on": "NO release", "action": "inhibitor", "technique": "Griess", "setting": "LPS-stimulated", "IC50": "84 µM and 84.2 µM"}
{"Structure (SMILES)": "COC1=C[C@@H]2[C@@H]3Cc4c(COC(=O)c5cnc(C)cn5)cc(OC)c(OC(=O)c5cnc(C)cn5)c4[C@]2(CCN3C)CC1=O", "effect on": "NO release", "action": "inhibitor", "technique": "Griess", "setting": "LPS-stimulated", "IC50": "69.1 µM"}
{"note": "Some of these lines once more:"}
{"Structure (SMILES)": "COC1=C[C@@H]2[C@@H]3Cc4ccc(OC)c(OC(=O)c5ccnnc5)c4[C@]2(CCN3C)CC1=O", "effect on": "NO release", "action": "inhibitor", "technique": "Griess", "setting": "LPS-stimulated", "IC50": "77.8 µM"}
